Published values of several laboratories.
Protocols differ between the studies behind these lines.

[Cl-].[Cl-].[Ru+2].c1cc(-c2ccc3cccnc3n2)nc(-c2ccc3cccnc3n2)c1.c1ccc2cc3nc4c5cccnc5c5ncccc5c4nc3cc2c1  phototoxicity index (B16-F10; resazurin; with: light 633 nm, 100 J/cm2; relative to: dark EC50 over light EC50): 1
Cn1ncc2cc(-c3cncc(Cl)c3N3CCC4(CCNC4=O)CC3)ccc21  log2 fold change (LS174T; gene expression, microarray, item: SLC40A1 mRNA; concentration not given, 24 h; relative to: untreated cells): 2.03
CN1CCCNC(=O)c2cccc(c2)C(=O)NCCCN(C)CCCNc2cccc3c2C(=O)c2cccc(c2C3=O)NCCC1  log2 fold change (SAS; RNA-Seq, item: EBAG9 mRNA; 1 µM, 6 h; relative to: untreated cells): 0.554
CC(C)c1ccc(N(C)c2ccc3c(c2)OCC[C@H]3CNc2cnccc2C(=O)O)cc1  IC50 (NCI-H358; cell viability, CellTiter-Glo; 7 days): 6.57 nM
Cc1ncsc1-c1ccc(C(C)NC(=O)C2CC(O)CN2C(=O)C(NC(=O)CCCCCCCCCCN2CCCC(Nc3ncc(Cl)c(Nc4ccccc4S(=O)(=O)C(C)C)n3)C2)C(C)(C)C)cc1 (stereo not drawn)  log2 fold change (22Rv1; RNA-seq, item: PRKAR2A-AS1; concentration not given; relative to: DMSO): -1.81
CC(C)(C)c1cc(-c2ccc3cccnc3n2)nc(-c2ccc3cccnc3n2)c1.COc1ccncc1.[Cl-].[Cl-].[Ru+2].c1ccc2cc3nc4c5cccnc5c5ncccc5c4nc3cc2c1  phototherapeutic index (B16-F10; visible light 100 J/cm2; relative to: dark EC50 over light EC50): 107
CCN(CC)CC(=O)Nc1cccc(-n2cc(-c3ccc4ccc(-c5cn(-c6cccc(NC(=O)CN(CC)CC)c6)nn5)cc4c3)nn2)c1  fold regulation (RCC4; PCR angiogenesis array, item: VEGFA; 5 x IC50, 2 h, normoxia; relative to: untreated): -1.01 fold
CNS(=O)(=O)Nc1nccc(Cc2c(C)c3ccc(Oc4ncccc4F)cc3oc2=O)c1F  IC50 (Z-138; cell viability; 7 days): > 1000 nM
CC(C)(C)c1cc(-c2ccc3cc4ccccc4nc3n2)nc(-c2ccc3cc4ccccc4nc3n2)c1.Cc1ccncc1.[Cl-].[Cl-].[Ru+2].c1ccc2cc3nc4c5cccnc5c5ncccc5c4nc3cc2c1  phototherapeutic index (B16-F10; visible light 100 J/cm2; relative to: dark EC50 over light EC50): 9
